Results from different studies.
Each line is one published result; not all experiments were run side by side. ± marks the error that the study gave.

N=C(N)NCCC[C@@H]1NC(=O)[C@H](CCCCNC(=O)CC[C@H](NC(=O)CC[C@H](NC(=O)CN2CCN(CC(=O)O)CCN(CC(=O)O)CCN(CC(=O)O)CC2)C(=O)N[C@@H](CCC(=O)NCCCC[C@@H]2NC(=O)[C@@H](Cc3ccccc3)NC(=O)[C@H](CC(=O)O)NC(=O)CNC(=O)[C@H](CCCNC(=N)N)NC2=O)C(=O)NCCCC[C@@H]2NC(=O)[C@@H](Cc3ccccc3)NC(=O)[C@H](CC(=O)O)NC(=O)CNC(=O)[C@H](CCCNC(=N)N)NC2=O)C(=O)NCCCC[C@@H]2NC(=O)[C@@H](Cc3ccccc3)NC(=O)[C@H](CC(=O)O)NC(=O)CNC(=O)[C@H](CCCNC(=N)N)NC2=O)NC(=O)[C@@H](Cc2ccccc2)NC(=O)[C@H](CC(=O)O)NC(=O)CNC1=O [indium-111 labelled]
tissue uptake (female athymic nu/nu mice, blood; intravenous, 0.5 h): 0.8 ± 0.18 %ID/g

Cc1cc(-c2ccc(NC(=O)[C@H](CCCCNC(=O)CCOCCOCCC(=O)N[C@H](Cc3ccccc3)C(=O)N[C@H]3CSSC[C@@H](C(=O)N[C@H](C(=O)O)[C@@H](C)O)NC(=O)[C@H]([C@@H](C)O)NC(=O)[C@H](CCCCN)NC(=O)[C@@H](Cc4c[nH]c5ccccc45)NC(=O)[C@H](Cc4ccc(O)cc4)NC3=O)NC(=O)CN3CCN(CC(=O)O)CCN(CC(=O)O)CCN(CC(=O)O)CC3)c(C)c2)ccc1N=Nc1ccc2c(S(=O)(=O)O)cc(S(=O)(=O)O)c(N)c2c1O [lutetium-177 labelled]
maximum cumulative administered activity (patients with metastatic neuroendocrine tumours, kidney; kidney absorbed dose limit 23-29 Gy): 12 to 15 GBq

CC(C)C[C@@H](NC(=O)[C@@H](CC(C)C)NC(=O)[C@@H](CC(=O)O)NC(=O)[C@@H](CC(C)C)NC(=O)[C@@H](CC(C)C)NC(=O)[C@@H](CC(C)C)NC(=O)[C@H](NC(=O)[C@@H](CC(=O)O)NC(=O)[C@H](NC(=O)[C@H]1CCCN1C(=O)[C@@H](Cc1ccccc1)NC(=O)[C@@H](CC(C)C)NC(=O)[C@@H](CC(C)C)NC(=O)[C@@H](CC(=O)O)NC(=O)[C@@H](CC(C)C)NC(=O)[C@@H](Cc1ccc(O)cc1)NC(=O)[C@@H](C)NC(=O)[C@@H](CCCNC(=N)N)NC(=O)[C@@H](Cc1c[nH]c2ccccc12)NC(=O)[C@H]1CCCN1C(=O)[C@@H](CC(N)=O)NC(=O)[C@@H](CCC(N)=O)NC(=O)[C@@H](CC(=O)O)NC(=O)[C@@H](CC(=O)O)NC(=O)[C@@H](CSC1CC(=O)N(CCNC(=O)CN2CCN(CC(=O)O)CCN(CC(=O)O)CC2)C1=O)NC(=O)[C@@H](C)N)[C@H](C)O)[C@H](C)O)C(=O)N[C@H](Cc1c[nH]c2ccccc12)C(=O)O (some centres unmarked) [copper-64 labelled]
tumour-to-muscle ratio (male nude mice, LNCaP xenograft; intravenous, 4 h; reference: tumour over muscle): 6 ± 2

N=C(N)NCCC[C@@H]1NC(=O)[C@H](CCCCNC(=O)CNC(=O)CNC(=O)CNC(=O)CC[C@H](NC(=O)CNC(=O)CNC(=O)CNC(=O)CC[C@H](NC(=O)CN2CCN(CC(=O)O)CCN(CC(=O)O)CCN(CC(=O)O)CC2)C(=O)NCC(=O)NCC(=O)NCC(=O)N[C@@H](CCC(=O)NCC(=O)NCC(=O)NCC(=O)NCCCC[C@@H]2NC(=O)[C@@H](Cc3ccccc3)NC(=O)[C@H](CC(=O)O)NC(=O)CNC(=O)[C@H](CCCNC(=N)N)NC2=O)C(=O)NCC(=O)NCC(=O)NCC(=O)NCCCC[C@@H]2NC(=O)[C@@H](Cc3ccccc3)NC(=O)[C@H](CC(=O)O)NC(=O)CNC(=O)[C@H](CCCNC(=N)N)NC2=O)C(=O)NCC(=O)NCC(=O)NCC(=O)NCCCC[C@@H]2NC(=O)[C@@H](Cc3ccccc3)NC(=O)[C@H](CC(=O)O)NC(=O)CNC(=O)[C@H](CCCNC(=N)N)NC2=O)NC(=O)[C@@H](Cc2ccccc2)NC(=O)[C@H](CC(=O)O)NC(=O)CNC1=O [indium-111 labelled]
tissue uptake (female athymic nu/nu mice, heart; intravenous, 24 h): 0.8 ± 0.22 %ID/g

C[C@H](NC(=O)CNC(=O)[C@H](CCC(=O)O)NC(=O)[C@H](CCC(=O)O)NC(=O)[C@H](CC(=O)O)NC(=O)[C@@H]1CCCN1C(=O)[C@H](Cc1ccccc1)NC(=O)[C@H](CS)NC(=O)[C@H](Cc1ccc(O)cc1)NC(=O)CCCNC(=O)CNC(=O)CNC(=O)[C@@H](C)NC(=O)CN)C(=O)N[C@@H](CS)C(=O)N[C@@H](Cc1ccc(O)cc1)C(N)=O [technetium-99m labelled]
radiochemical purity (paper chromatography; sealed vial; 2 h, room temperature): 93.7 ± 2.49%

N=C(N)NCCC[C@@H]1NC(=O)[C@H](CCCCNC(=O)CNC(=O)CNC(=O)CNC(=O)CC[C@H](NC(=O)CNC(=O)CNC(=O)CNC(=O)CN2CCN(CC(=O)O)CCN(CC(=O)O)CCN(CC(=O)O)CC2)C(=O)NCC(=O)NCC(=O)NCC(=O)NCCCC[C@@H]2NC(=O)[C@@H](Cc3ccccc3)NC(=O)[C@H](CC(=O)O)NC(=O)CNC(=O)[C@H](CCCNC(=N)N)NC2=O)NC(=O)[C@@H](Cc2ccccc2)NC(=O)[C@H](CC(=O)O)NC(=O)CNC1=O [indium-111 labelled]
tissue uptake (female athymic nu/nu mice, kidney; intravenous, 0.5 h): 6.74 ± 0.79 %ID/g

CCCC[C@H](NC(=O)CNC(=O)CNC(=O)CN1CCN(CC(=O)O)CCN(CC(=O)O)CCN(CC(=O)O)CC1)C(=O)N[C@H]1CC(=O)NCCCC[C@@H](C(N)=O)NC(=O)[C@H](Cc2c[nH]c3ccccc23)NC(=O)[C@H](CCCNC(=N)N)NC(=O)[C@@H](Cc2ccccc2)NC(=O)[C@H](Cc2c[nH]cn2)NC1=O [lutetium-177 labelled]
tissue uptake (C57 mouse, female, muscle; intravenous, 0.037 MBq, 4 h): 0.05 ± 0.02 %ID/g

COc1ccc2cc([C@H](C)C(=O)N[C@H](Cc3ccccc3)C(=O)N[C@H](Cc3ccccc3)C(=O)O)ccc2c1
nanofiber width (TEM; hydrogel 0.8 wt%): 54 ± 7 nm

CCCC[C@H](NC(=O)CCCCCCCNC(=O)CN1CCN(CC(=O)O)CCN(CC(=O)O)CC1)C(=O)N[C@H]1CC(=O)NCCCC[C@@H](C(N)=O)NC(=O)[C@H](Cc2c[nH]c3ccccc23)NC(=O)[C@H](CCCNC(=N)N)NC(=O)[C@@H](Cc2ccccc2)NC(=O)[C@H](Cc2c[nH]cn2)NC1=O [copper-64 labelled]
tissue uptake (C57 mice, kidney; intravenous, 0.37 MBq, 4 h): 1.08 ± 0.22 %ID/g

COc1ccc2cc([C@H](C)C(=O)NCCCC[C@@H](NC(=O)[C@@H](Cc3ccccc3)NC(=O)[C@H](N)Cc3ccccc3)C(=O)O)ccc2c1
nanofiber width (TEM; hydrogel 0.8 wt%): 26 ± 3 nm

CCCCCC(=O)N[C@H]1CSCc2cc(CSCCNC(=O)CCCCCNC(=O)CC[C@H](NC(=O)CCC(C(=O)O)N3CCN(CC(=O)O)CCN(CC(=O)O)CCN(CC(=O)O)CC3)C(=O)NCCCOc3ccc4nccc(C(=O)NCC(=O)N5CC(F)(F)C[C@H]5C#N)c4c3)cc(c2)CSC[C@@H](C(=O)O)NC(=O)[C@H](Cc2ccccc2)NC(=O)[C@H](CCC(N)=O)NC(=O)[C@H]([C@@H](C)O)NC(=O)[C@@H]2CCCN2C(=O)[C@@H]2CCCN2C1=O (some centres unmarked)
radiochemical purity (PBS; 2 h, 37 °C): > 95%

Some of these lines once more:
N=C(N)NCCC[C@@H]1NC(=O)[C@H](CCCCNC(=O)CNC(=O)CNC(=O)CNC(=O)CC[C@H](NC(=O)CNC(=O)CNC(=O)CNC(=O)CN2CCN(CC(=O)O)CCN(CC(=O)O)CCN(CC(=O)O)CC2)C(=O)NCC(=O)NCC(=O)NCC(=O)NCCCC[C@@H]2NC(=O)[C@@H](Cc3ccccc3)NC(=O)[C@H](CC(=O)O)NC(=O)CNC(=O)[C@H](CCCNC(=N)N)NC2=O)NC(=O)[C@@H](Cc2ccccc2)NC(=O)[C@H](CC(=O)O)NC(=O)CNC1=O [indium-111 labelled]
tissue uptake (female athymic nu/nu mice, kidney; intravenous, 0.5 h): 6.74 ± 0.79 %ID/g
